Experimental data of several laboratories.
Protocols differ between the studies behind these lines.
RIPK1: Receptor-interacting serine/threonine-protein kinase 1 (RIPK1, Homo sapiens, UniProt Q13546)
Chain of UniProt Q13546 (whole entry, looked up): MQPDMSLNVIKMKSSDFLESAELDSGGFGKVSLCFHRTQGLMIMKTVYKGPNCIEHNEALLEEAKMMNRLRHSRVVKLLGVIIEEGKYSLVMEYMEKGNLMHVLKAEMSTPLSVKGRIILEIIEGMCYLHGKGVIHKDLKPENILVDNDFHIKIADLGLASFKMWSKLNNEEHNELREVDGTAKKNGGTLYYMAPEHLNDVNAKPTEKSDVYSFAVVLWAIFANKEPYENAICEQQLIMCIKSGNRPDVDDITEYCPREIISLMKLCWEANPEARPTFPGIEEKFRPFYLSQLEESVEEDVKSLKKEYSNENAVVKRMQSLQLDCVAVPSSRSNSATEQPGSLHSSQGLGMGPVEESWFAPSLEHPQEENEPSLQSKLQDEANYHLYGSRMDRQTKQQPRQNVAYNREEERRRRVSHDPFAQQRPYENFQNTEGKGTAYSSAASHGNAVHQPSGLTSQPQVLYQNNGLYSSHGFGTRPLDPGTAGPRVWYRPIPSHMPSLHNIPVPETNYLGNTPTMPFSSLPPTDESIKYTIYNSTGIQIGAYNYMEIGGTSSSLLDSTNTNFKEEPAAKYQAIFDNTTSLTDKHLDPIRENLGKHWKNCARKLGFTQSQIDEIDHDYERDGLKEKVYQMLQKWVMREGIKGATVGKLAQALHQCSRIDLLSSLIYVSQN
Chain of UniProt P30542 (whole entry, looked up): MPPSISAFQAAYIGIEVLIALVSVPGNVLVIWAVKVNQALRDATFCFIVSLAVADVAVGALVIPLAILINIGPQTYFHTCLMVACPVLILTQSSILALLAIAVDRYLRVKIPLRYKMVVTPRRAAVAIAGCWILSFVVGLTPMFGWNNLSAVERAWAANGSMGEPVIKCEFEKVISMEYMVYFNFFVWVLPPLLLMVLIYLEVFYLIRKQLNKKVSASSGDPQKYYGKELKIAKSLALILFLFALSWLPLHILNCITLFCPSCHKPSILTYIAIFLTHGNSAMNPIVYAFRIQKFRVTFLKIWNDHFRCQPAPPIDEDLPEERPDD
Chain of UniProt P24666 (whole entry, looked up): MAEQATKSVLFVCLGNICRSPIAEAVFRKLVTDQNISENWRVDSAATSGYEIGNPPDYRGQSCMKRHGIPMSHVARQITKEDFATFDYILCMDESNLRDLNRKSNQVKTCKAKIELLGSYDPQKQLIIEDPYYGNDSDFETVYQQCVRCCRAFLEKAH
Chain of UniProt P17812 (whole entry, looked up): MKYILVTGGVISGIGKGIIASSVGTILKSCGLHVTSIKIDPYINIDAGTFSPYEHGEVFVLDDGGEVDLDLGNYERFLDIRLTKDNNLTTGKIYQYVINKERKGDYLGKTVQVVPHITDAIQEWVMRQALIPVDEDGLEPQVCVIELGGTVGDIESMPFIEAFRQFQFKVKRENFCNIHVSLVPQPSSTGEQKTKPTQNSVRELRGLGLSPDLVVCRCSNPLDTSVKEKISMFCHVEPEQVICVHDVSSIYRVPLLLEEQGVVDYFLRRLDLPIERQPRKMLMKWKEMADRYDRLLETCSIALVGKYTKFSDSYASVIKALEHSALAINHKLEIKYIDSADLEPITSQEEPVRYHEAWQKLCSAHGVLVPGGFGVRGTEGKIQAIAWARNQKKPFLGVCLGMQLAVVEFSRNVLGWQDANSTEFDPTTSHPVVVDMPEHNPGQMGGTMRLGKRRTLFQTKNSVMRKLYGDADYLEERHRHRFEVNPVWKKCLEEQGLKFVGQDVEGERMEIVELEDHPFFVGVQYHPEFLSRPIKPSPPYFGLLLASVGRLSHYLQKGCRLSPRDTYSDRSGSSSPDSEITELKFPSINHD
Chain of UniProt P21462 (whole entry, looked up): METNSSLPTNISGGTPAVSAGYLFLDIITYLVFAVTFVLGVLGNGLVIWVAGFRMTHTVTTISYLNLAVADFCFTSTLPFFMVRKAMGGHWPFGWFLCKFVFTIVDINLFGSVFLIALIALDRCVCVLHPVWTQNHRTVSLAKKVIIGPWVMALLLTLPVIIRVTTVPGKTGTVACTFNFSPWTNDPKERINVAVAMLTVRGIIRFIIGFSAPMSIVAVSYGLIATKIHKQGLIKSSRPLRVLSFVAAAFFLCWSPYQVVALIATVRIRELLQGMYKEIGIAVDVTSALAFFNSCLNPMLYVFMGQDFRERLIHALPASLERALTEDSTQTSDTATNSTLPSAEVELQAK
Chain of UniProt P11229 (whole entry, looked up): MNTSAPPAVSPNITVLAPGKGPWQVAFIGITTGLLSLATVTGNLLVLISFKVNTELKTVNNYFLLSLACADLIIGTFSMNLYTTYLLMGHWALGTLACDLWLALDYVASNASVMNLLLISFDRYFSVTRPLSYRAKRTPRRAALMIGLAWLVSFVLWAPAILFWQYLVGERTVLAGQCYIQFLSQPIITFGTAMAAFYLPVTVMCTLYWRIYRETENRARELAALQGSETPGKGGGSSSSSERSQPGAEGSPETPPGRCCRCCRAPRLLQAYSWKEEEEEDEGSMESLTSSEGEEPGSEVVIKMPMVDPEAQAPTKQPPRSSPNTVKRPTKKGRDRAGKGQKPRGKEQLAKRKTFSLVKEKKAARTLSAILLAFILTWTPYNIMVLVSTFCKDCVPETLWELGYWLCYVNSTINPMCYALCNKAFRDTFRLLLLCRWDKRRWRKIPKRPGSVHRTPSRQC
Chain of UniProt Q9UBS0 (whole entry, looked up): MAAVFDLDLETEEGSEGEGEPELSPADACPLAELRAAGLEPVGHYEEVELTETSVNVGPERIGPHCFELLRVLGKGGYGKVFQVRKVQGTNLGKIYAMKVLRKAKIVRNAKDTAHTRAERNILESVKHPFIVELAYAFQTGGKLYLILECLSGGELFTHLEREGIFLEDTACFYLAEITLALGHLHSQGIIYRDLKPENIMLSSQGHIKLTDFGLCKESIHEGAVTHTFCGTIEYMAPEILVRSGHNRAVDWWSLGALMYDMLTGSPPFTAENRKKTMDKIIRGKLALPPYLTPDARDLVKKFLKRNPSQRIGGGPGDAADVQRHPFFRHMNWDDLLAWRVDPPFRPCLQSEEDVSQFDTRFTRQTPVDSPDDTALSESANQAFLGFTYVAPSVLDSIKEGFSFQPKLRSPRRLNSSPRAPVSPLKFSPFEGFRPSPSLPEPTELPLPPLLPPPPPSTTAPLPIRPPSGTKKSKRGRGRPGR
Chain of UniProt Q92731 (whole entry, looked up): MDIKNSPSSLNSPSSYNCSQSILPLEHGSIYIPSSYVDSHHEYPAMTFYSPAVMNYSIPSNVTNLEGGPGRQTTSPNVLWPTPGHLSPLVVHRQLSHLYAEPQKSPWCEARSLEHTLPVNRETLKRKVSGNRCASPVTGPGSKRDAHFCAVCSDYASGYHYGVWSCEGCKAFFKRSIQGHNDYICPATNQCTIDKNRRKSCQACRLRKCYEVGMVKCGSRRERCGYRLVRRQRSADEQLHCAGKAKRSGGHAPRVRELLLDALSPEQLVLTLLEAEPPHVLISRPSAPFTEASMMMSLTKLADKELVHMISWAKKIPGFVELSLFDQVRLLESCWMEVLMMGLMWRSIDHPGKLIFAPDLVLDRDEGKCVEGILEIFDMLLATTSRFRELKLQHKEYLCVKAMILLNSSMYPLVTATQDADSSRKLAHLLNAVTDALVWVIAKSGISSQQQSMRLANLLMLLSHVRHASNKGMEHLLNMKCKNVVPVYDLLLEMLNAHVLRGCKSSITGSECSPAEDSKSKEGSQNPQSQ
Chain of UniProt P48736 (whole entry, looked up): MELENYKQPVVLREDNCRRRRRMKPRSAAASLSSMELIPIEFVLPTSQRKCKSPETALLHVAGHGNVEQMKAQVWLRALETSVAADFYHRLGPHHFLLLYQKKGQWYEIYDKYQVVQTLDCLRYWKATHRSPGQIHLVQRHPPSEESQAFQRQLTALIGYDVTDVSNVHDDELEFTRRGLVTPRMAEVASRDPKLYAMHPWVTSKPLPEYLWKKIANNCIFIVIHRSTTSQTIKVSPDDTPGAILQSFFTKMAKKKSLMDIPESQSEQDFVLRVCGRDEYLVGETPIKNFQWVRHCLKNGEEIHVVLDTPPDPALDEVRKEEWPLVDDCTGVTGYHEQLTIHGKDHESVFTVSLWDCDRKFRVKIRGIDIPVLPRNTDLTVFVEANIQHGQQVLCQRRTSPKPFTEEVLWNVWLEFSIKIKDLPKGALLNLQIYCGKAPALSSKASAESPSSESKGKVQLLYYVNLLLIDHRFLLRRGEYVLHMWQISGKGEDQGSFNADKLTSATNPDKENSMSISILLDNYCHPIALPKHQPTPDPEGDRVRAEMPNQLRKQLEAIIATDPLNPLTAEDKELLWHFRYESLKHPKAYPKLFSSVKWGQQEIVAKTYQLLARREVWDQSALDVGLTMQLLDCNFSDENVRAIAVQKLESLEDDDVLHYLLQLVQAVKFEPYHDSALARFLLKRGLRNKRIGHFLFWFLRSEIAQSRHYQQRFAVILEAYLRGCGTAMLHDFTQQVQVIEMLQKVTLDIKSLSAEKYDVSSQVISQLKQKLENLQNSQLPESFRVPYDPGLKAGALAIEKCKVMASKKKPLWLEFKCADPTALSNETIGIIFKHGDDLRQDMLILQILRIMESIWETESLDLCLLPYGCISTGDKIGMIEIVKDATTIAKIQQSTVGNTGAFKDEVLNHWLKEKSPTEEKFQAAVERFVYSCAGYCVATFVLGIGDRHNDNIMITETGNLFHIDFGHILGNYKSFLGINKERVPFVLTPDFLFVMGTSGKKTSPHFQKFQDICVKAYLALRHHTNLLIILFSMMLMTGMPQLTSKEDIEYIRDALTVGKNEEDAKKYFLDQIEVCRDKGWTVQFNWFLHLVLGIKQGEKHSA

Structure (SMILES) | target | test | system | conditions | scale | selectivity ratio
O=C(Cc1cccc(C(F)(F)F)c1)Nc1cc(Oc2c(F)cc3nc(NC(=O)C4CC4)sc3c2F)ccc1F | RIPK1 | KINOMEscan binding Kd | – | – | reference: RIPK1 over RIPK3, higher = more RIPK1-selective | > 52
COc1cc2c(cc1OC)C1=NCCN1C(NC(=O)c1cccnc1)=N2 | Phosphatidylinositol 4,5-bisphosphate 3-kinase catalytic subunit gamma isoform (PIK3CG, Homo sapiens, UniProt P48736) | – | – | – | reference: IC50 p110β over IC50 p110γ | 28
CN1CCC=C(c2nsnc2OCCCN2CCN(CCCCC3CCN(CC(=O)N4c5ccccc5NC(=O)c5ccccc54)CC3)CC2)C1 | Muscarinic acetylcholine receptor M1 (CHRM1, Homo sapiens, UniProt P11229) | radioligand competition binding | CHO cells | – | reference: Ki M1 over Ki M2 | 23
CNC1C[S+]2CC[S+]3CC[S+](C1)[Ru-4]321([N]=C=S)[n]2c3ccc(OC)cc3c3c4c(c5cc(F)c[n+]1c5c32)C(=O)NC4=O (stereo not shown) | Ribosomal protein S6 kinase beta-2 (RPS6KB2, Homo sapiens, UniProt Q9UBS0) | enzyme activity, inhibitor, radioactive kinase | – | with: ATP 100 µM | reference: IC50 RPS6KB2 over IC50 S6K1 | > 100 fold
O=C(Cc1cccc(C(F)(F)F)c1)Nc1cc(Oc2ccc3nc(NC(=O)C4CC4)sc3c2CO)ccc1F | RIPK1 | KINOMEscan binding Kd | – | – | reference: RIPK1 over RIPK3, higher = more RIPK1-selective | 13
CCOc1cncc(-c2ccc(NC(=O)C(CC)c3ccnc(NS(=O)(=O)C4CC4)n3)nc2)n1 (stereo not shown) | CTP synthase 1 (Homo sapiens, UniProt P17812) | enzyme activity | human | – | reference: CTPS2 over target IC50 | 126
COc1cccc(Cc2cc(CCC(=O)NCCNc3cccc4c(S(=O)(=O)O)cccc34)nn(CC(=O)Nc3ccc(Br)cc3)c2=O)c1 | fMet-Leu-Phe receptor (FPR1, Homo sapiens, UniProt P21462) | calcium mobilization, agonist | HL-60 transfected with FPR1 or FPR2 | – | reference: FPR1 over FPR2 | 100 fold
N[C@@H](CCC(=O)N[C@@H](CS[Se]Cc1ccc(-c2cccc(C(O)c3ccc(Cl)c(Cl)c3)c2)cc1)C(=O)NCC(=O)O)C(=O)O (stereo partly shown) | Low molecular weight phosphotyrosine protein phosphatase (ACP1, Homo sapiens, UniProt P24666) | enzyme activity | – | with: pNPP, GSH 1 mM | reference: IC50 ACP1 over STEP | 8
CC1(C)C(/C=C/C2=C(Oc3ccc(CCC(=O)NCCC(O)(P(=O)([O-])O)P(=O)(O)O)cc3)C(=C/C=C3/N(CCC[N+](C)(C)C)c4ccc(S(=O)(=O)[O-])cc4C3(C)C)/CCC2)=[N+](CCC[N+](C)(C)C)c2ccc(S(=O)(=O)[O-])cc21 (stereo not shown) | hydroxyapatite | binding, NIR fluorescence imaging | – | 5 µM, 30 min | reference: hydroxyapatite over other calcium salts | 8 fold
COc1cc2nc(NC(=O)C3CC3)sc2cc1Oc1ccc(F)c(NC(=O)Cc2cccc(C(F)(F)F)c2)c1 | RIPK1 | KINOMEscan binding Kd | – | – | reference: RIPK1 over RIPK3, higher = more RIPK1-selective | > 36
COc1ccc(C=CC(=O)c2cccc(O)c2)cc1 | Estrogen receptor beta (ESR2, Homo sapiens, UniProt Q92731) | antagonist, yeast two-hybrid, SRC1 | – | with: estradiol 1 nM | reference: IC50 ERα over IC50 ERβ | 1.31
Cc1cc2nc(NC(=O)C3CC3)sc2cc1Oc1ccc(F)c(NC(=O)Cc2cccc(C(F)(F)F)c2)c1 | RIPK1 | KINOMEscan binding Kd | – | – | reference: RIPK1 over RIPK3, higher = more RIPK1-selective | > 36
COc1ccc(-c2nc(CSc3nc(N)c(C#N)c(-c4ccccc4)c3C#N)cs2)cc1 | Adenosine receptor A1 (ADORA1, Homo sapiens, UniProt P30542) | binding, radioligand competition | HEK293 membranes | with: [3H]DPCPX | reference: A2A Ki over A1 Ki | 29 fold

A few entries again:
Structure (SMILES) | target | test | system | conditions | scale | selectivity ratio
O=C(Cc1cccc(C(F)(F)F)c1)Nc1cc(Oc2c(F)cc3nc(NC(=O)C4CC4)sc3c2F)ccc1F | RIPK1 | KINOMEscan binding Kd | – | – | reference: RIPK1 over RIPK3, higher = more RIPK1-selective | > 52
COc1cc2c(cc1OC)C1=NCCN1C(NC(=O)c1cccnc1)=N2 | Phosphatidylinositol 4,5-bisphosphate 3-kinase catalytic subunit gamma isoform (PIK3CG, Homo sapiens, UniProt P48736) | – | – | – | reference: IC50 p110β over IC50 p110γ | 28
